Results pooled from the literature.
Numbered parts are unrelated; each lists some results of a single study.
Chain of UniProt P49760 (whole entry, looked up): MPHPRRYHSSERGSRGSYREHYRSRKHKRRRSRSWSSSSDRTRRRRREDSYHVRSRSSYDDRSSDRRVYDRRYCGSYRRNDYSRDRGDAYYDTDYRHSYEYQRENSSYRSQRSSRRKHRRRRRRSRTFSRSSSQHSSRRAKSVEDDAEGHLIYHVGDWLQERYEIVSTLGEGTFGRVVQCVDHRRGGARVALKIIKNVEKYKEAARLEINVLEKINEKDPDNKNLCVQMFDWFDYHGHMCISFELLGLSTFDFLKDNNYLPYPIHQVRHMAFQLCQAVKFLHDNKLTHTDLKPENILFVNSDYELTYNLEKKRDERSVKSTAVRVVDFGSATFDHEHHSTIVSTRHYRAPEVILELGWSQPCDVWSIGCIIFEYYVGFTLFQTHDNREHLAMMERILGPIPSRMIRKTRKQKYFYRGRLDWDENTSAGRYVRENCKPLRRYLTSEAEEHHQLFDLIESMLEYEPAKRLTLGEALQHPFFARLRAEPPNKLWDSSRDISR
Chain of UniProt Q9GZQ4 (whole entry, looked up): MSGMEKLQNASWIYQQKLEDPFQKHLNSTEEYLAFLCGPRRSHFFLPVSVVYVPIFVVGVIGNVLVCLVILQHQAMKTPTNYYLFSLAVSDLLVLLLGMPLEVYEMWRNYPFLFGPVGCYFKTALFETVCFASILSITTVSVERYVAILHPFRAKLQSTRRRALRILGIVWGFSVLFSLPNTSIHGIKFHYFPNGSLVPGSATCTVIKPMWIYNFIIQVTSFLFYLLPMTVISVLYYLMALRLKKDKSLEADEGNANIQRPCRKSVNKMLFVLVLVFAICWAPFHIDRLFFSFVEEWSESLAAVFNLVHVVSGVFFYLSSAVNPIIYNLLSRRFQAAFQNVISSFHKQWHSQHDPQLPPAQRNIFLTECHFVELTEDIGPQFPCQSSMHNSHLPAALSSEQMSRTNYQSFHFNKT
Chain of UniProt P37023 (whole entry, looked up): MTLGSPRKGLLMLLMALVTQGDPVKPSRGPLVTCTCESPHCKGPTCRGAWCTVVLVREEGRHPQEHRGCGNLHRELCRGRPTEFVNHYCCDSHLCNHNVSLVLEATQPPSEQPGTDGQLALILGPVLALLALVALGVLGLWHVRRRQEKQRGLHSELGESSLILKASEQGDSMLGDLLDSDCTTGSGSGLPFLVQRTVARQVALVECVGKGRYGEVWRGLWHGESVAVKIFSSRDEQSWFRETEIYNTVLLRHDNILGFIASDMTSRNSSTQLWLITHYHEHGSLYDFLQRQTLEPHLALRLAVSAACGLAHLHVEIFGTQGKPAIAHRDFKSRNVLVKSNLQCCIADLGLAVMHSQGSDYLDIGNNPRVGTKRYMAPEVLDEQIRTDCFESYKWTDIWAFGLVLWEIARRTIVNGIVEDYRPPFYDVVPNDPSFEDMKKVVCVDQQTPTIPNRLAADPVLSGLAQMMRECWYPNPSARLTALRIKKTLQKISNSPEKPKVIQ
Chain of UniProt P08069 (whole entry, looked up): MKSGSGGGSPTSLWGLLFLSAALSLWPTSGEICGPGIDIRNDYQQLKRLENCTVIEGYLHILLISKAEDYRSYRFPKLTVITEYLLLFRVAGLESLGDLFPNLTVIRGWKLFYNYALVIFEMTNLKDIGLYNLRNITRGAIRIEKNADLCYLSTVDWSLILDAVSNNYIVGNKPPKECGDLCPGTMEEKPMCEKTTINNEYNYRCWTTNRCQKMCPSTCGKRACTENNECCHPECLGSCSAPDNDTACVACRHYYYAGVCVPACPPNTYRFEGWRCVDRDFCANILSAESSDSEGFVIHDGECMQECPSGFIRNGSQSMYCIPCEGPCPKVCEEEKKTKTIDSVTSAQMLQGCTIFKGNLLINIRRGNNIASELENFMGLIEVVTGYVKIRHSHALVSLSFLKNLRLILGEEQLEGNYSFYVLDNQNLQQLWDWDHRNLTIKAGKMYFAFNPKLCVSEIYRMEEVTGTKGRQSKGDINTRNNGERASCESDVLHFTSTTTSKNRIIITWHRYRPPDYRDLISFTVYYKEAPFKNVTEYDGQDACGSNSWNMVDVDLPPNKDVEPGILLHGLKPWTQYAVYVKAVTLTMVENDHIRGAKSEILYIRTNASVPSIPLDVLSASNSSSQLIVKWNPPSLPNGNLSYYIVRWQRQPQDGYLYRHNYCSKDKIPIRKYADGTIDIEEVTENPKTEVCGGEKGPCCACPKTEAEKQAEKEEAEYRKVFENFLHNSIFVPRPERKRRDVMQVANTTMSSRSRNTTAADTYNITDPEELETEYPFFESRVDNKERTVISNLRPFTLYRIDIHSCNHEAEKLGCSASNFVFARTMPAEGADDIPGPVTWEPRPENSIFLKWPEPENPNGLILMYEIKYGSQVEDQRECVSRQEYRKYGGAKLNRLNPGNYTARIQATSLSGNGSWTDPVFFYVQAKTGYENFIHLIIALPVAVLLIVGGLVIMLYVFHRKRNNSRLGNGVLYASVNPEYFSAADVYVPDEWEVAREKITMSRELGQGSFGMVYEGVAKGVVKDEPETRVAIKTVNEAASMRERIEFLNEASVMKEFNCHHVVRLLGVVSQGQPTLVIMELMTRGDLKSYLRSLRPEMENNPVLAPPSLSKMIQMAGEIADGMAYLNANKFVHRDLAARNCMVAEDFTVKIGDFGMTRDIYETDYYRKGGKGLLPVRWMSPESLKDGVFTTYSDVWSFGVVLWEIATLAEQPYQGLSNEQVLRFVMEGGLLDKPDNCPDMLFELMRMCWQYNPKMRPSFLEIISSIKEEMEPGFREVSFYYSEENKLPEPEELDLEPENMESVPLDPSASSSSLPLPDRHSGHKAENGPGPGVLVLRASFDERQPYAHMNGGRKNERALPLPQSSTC
Chain of UniProt Q9UBS0 (whole entry, looked up): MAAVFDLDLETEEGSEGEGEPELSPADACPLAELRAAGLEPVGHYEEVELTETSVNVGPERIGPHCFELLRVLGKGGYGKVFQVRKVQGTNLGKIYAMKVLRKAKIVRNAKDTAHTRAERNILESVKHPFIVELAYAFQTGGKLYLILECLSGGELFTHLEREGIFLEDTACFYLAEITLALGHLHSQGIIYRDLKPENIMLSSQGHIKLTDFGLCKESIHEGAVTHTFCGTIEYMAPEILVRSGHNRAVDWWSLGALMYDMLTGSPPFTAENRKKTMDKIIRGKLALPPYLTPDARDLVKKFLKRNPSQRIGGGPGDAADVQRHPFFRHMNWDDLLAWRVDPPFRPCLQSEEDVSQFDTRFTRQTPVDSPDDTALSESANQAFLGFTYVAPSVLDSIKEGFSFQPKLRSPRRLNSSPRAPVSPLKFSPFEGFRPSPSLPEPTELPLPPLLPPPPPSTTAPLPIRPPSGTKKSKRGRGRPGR
Chain of UniProt Q9NRM7 (whole entry, looked up): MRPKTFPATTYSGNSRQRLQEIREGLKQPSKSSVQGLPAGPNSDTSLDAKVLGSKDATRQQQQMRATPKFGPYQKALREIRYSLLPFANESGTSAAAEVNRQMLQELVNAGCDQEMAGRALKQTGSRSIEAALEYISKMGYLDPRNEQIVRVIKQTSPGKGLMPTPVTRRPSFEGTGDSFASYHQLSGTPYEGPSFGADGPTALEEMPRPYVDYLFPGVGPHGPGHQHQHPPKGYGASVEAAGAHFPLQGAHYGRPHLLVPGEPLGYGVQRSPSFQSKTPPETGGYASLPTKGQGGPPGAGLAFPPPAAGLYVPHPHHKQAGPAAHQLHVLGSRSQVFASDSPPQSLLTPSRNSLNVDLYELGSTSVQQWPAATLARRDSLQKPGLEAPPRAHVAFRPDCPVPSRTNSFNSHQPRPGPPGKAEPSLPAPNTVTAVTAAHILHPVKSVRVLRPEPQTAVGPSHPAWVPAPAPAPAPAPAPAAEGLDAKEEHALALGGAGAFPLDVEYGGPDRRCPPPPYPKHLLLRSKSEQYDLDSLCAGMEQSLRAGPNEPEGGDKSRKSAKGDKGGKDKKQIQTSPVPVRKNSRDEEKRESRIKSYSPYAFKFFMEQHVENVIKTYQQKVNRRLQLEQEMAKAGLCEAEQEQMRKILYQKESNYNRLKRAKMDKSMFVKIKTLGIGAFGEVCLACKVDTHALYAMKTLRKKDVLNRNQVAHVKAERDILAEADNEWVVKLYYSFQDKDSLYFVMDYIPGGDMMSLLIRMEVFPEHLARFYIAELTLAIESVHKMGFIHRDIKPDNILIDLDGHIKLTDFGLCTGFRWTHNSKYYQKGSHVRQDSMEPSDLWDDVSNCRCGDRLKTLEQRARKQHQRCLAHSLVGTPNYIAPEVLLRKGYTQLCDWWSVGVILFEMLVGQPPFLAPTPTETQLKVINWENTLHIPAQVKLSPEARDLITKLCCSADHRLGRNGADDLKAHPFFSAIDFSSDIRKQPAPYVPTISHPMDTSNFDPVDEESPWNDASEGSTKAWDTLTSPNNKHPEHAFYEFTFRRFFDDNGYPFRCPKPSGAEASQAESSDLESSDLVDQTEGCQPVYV
Chain of UniProt P57058 (whole entry, looked up): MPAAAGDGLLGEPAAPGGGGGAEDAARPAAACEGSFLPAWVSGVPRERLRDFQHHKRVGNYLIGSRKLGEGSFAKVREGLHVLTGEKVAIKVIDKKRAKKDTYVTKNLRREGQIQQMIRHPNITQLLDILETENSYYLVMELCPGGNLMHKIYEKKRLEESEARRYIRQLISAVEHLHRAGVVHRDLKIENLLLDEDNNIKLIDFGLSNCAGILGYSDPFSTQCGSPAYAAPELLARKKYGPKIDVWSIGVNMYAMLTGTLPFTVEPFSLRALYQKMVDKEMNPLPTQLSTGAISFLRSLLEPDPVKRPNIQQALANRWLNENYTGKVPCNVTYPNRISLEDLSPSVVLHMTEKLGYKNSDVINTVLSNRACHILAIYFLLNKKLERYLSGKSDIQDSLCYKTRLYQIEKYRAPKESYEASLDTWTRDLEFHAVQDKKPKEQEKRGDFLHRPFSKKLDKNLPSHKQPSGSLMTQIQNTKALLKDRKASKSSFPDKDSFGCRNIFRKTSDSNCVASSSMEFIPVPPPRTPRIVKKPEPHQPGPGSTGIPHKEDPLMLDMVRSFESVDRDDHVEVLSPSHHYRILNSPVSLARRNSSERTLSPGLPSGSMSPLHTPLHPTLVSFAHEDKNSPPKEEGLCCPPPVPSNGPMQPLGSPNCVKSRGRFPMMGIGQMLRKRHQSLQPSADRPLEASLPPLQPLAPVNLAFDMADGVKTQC

Block 1
SMILES: CCN(c1nc(N)c(C(=O)N=C(N)N)nc1Cl)C(C)C
Observed: β-arrestin recruitment
Mode: agonist
Technique: PRESTO-Tango
Concentration: 10 µM
Reference: untreated
target | fold over basal
G-protein coupled receptor 182 (GPR182, Homo sapiens, UniProt O15218) | 0.92
GPR65 (Homo sapiens, UniProt Q8IYL9) | 0.87
NMUR2 (Homo sapiens, UniProt Q9GZQ4) | 0.72
Mas-related G-protein coupled receptor member G (MRGPRG, Homo sapiens, UniProt Q86SM5) | 0.9
PTGER3 (Homo sapiens, UniProt P43115) | 0.84
F2R (Homo sapiens, UniProt P25116) | 1.16

Block 2
Structure (SMILES): CN1CCN(C(=O)c2ccc(NC(=O)Nc3ccc(N(C)c4ccnc(Nc5ccc(CS(C)(=O)=O)cc5)n4)cc3)cc2)CC1
Concentration: 1 µM
target | observed | technique | remaining binding
PRKG1 (Homo sapiens, UniProt Q13976) | binding | – | 100%
LATS2 (Homo sapiens, UniProt Q9NRM7) | binding | – | 59%
PIK3CA (Homo sapiens, UniProt P42336) | binding | – | 98%
CLK2 (Homo sapiens, UniProt P49760) | binding | – | 54%
STK17B (Homo sapiens, UniProt O94768) | binding | – | 100%
HIPK1 (Homo sapiens, UniProt Q86Z02) | binding | competition with immobilised ligand | 72%
Non-receptor tyrosine-protein kinase TYK2, JH1 (TYK2, Homo sapiens, UniProt P29597) | cell-free assay | competition with immobilised ligand | 4.2%
TAOK1 (Homo sapiens, UniProt Q7L7X3) | binding | competition with immobilised ligand | 71%
HCK (Homo sapiens, UniProt P08631) | binding | competition with immobilised ligand | 100%
HUNK (Homo sapiens, UniProt P57058) | binding | – | 35%

Block 3
Compound: O=C1NC(c2ccccn2)Sc2ccccc21 (stereo not shown)
Observed: cell-free assay
Technique: competition with immobilised ligand
Concentration: 1 µM
target | remaining binding [%]
CAMK4 (Homo sapiens, UniProt Q16566) | 72
LYN (Homo sapiens, UniProt P07948) | 80
RET (Homo sapiens, UniProt P07949, M918T) | 64
PDGFRB (Homo sapiens, UniProt P09619) | 83
CLK2 (Homo sapiens, UniProt P49760) | 95
NEK4 (Homo sapiens, UniProt P51957) | 58
Macrophage colony-stimulating factor 1 receptor, autoinhibited (CSF1R, Homo sapiens, UniProt P07333) | 91

Block 4
Target: Diamine acetyltransferase 1 (Homo sapiens, UniProt P21673)
Mode: inhibitor
Concentration: 10 µM
Reference: control
Target sequence (P21673 1-171): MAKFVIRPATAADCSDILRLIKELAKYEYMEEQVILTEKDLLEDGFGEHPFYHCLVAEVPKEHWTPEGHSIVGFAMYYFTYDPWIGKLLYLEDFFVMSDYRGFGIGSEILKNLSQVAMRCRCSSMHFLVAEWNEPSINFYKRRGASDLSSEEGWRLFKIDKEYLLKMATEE
Compound | remaining activity [%]
CC1=C(C=O)C(C)(C)C[C@H](O[C@@H]2O[C@H](CO)[C@@H](O)[C@H](O)[C@H]2O)C1 | 91.4
CCCCCCCCCCCCCCCCCCCO | 104
O=C(O)c1cc(=O)cc(C(=O)O)o1 | 86.1
N[C@@H](CSSC[C@H](N)C(=O)O)C(=O)O | 117
Cc1cc(O)c(C)c2c1O[C@](C)(CCC[C@H](C)CCC[C@H](C)CCCC(C)C)CC2 | 102
CSSSC | 101
C[C@@H]1CCCC2=CC(=O)[C@@H]3[C@@H](C3(C)C)[C@]21C | 95.8

Block 5
SMILES: COc1cc2ncc(-c3ccccc3)nc2cc1OC
Observed: enzyme activity
Mode: inhibitor
Concentration: 0.5 µM
Reference: control
target | remaining activity [%]
SGK2 (Homo sapiens, UniProt Q9HBY8) | 95.6
CLK1 (Homo sapiens, UniProt P49759) | 102
EPHB3 (Homo sapiens, UniProt P54753) | 88.6
CSNK1E (Homo sapiens, UniProt P49674) | 79.3
DYRK1A (Homo sapiens, UniProt Q13627) | 97.2
MAP3K20 (Homo sapiens, UniProt Q9NYL2) | 94.7
TYRO3 (Homo sapiens, UniProt Q06418) | 100
CSNK1D (Homo sapiens, UniProt P48730) | 101
MARK1 (Homo sapiens, UniProt Q9P0L2) | 92.6
BRSK2 (Homo sapiens, UniProt Q8IWQ3) | 103
EPHA6 (Homo sapiens, UniProt Q9UF33) | 90.4
PAK1 (Homo sapiens, UniProt Q13153) | 91.3
EPHA2 (Homo sapiens, UniProt P29317) | 102
CAMKK1 (Homo sapiens, UniProt Q8N5S9) | 98.9
ACVRL1 (Homo sapiens, UniProt P37023) | 95.8
IGF1R (Homo sapiens, UniProt P08069) | 91.1
RPS6KA3 (Homo sapiens, UniProt P51812) | 101
Cyclin-dependent kinase 5, with p35 (CDK5, Homo sapiens, UniProt Q00535) | 95.8
FES (Homo sapiens, UniProt P07332) | 105
ERBB2 (Homo sapiens, UniProt P04626) | 116
SRPK1 (Homo sapiens, UniProt Q96SB4) | 105
PRKCQ (Homo sapiens, UniProt Q04759) | 101
Cyclin-dependent kinase 2, with cyclin E (CDK2, Homo sapiens, UniProt P24941) | 85.4
CAMK1 (Homo sapiens, UniProt Q14012) | 90.4
RPS6KB2 (Homo sapiens, UniProt Q9UBS0) | 104
